Published values from different studies.
Each line is one published result; not all experiments were run side by side. Numbers after ± are the reported error.

COC(=O)[C@H]1[C@@H](c2ccc(Cl)cc2)C[C@@H]2CC[C@H]1N2Cc1ccc2cc3ccccc3cc2c1  pKa (fluorometric titration; 1 µM, 10% DMSO): 5.4
N#[11C]c1ccc(-c2csc(NN=C3CCCC3)n2)cc1  radioactivity uptake (dynamic PET/CT; C57BL/6 mouse, liver; intravenous, dose not given, 60 min): 0.8 SUV
C=C/C=C/C[C@@H](C)[C@@H](O)[C@H]1C(=O)N[C@@H](CC)C(=O)N(C)CC(=O)N(C)[C@@H](CC(C)C)C(=O)N[C@@H](C(C)C)C(=O)N(C)[C@@H](CC(C)C)C(=O)N[C@@H](C)C(=O)N[C@H](C)C(=O)N(C)[C@@H](CC(C)C)C(=O)N(C)[C@@H](CC(C)C)C(=O)N(C)[C@@H](C(C)C)C(=O)N1C  trough concentration (LC-MS/MS; Wistar Kyoto rat, male, whole blood; ip, 0.5 mg/kg/day, 672 h after 28 days): 41.4 ± 9.5 ng/mL
O=C1NC2(CC2)COc2ncc(F)cc2[C@H]2COCCN2c2ccn3ncc1c3n2  haemoglobin (Sprague-Dawley rat, female, blood; oral, 20 mg/kg/day, 4 weeks, end of treatment, subacute toxicity): 123 ± 17 g/L
CC(C)NCCCn1c(Sc2cc3c(cc2I)OCO3)nc2c(N)ncnc21  tumour concentration (LC-MS/MS; mouse, MDA-MB-468 xenograft, tumour; 50 mg/kg single dose, 24 h): 3.6 µM
CSCC[C@H](NC(=O)CNC(=O)[C@H](CCCCN)NC(=O)[C@H](CC(C)C)NC(=O)[C@@H]1CCCN1C(=O)[C@H](CO)NC(=O)[C@H](Cc1c[nH]cn1)NC(=O)[C@H](Cc1c[nH]c2ccccc12)NC(=O)[C@H](CCCNC(=N)N)NC(=O)[C@H](CC(C)C)NC(=O)[C@H](CCCNC(=N)N)NC(=O)[C@H](Cc1c[nH]c2ccccc12)NC(=O)[C@H](CS)NC(=O)CCCCCNC(=O)CN1CCN(CC(=O)O)CCN(CC(=O)O)CCN(CC(=O)O)CC1)C(=O)O [copper-64 labelled]  tumour-to-muscle ratio (BALB/c nude mouse, Huh-7 tumour, tumour and muscle; intravenous, 1.85 MBq, 1 h, ex vivo biodistribution; reference: tumour over muscle): 6.45
CC(C)=CCC/C(C)=C/CCn1cc(CC(P(=O)(O)O)P(=O)(O)O)nn1  C0 (CD-1 mouse, plasma; intravenous, 0.5 mg/kg, single dose): 1380 ng/mL
CC[C@H](C)[C@H](NC(=O)[C@H](CO)NC(=O)[C@H](CCCCN)NC(=O)[C@@H](NC(=O)[C@@H](NC(=O)[C@H](CC(=O)O)NC(=O)[C@H](CCC(=O)O)NC(=O)[C@@H](NC(=O)[C@H](CO)NC(=O)[C@@H](N)CCCNC(=N)N)[C@@H](C)O)[C@@H](C)CC)[C@@H](C)CC)C(=O)N[C@@H](CO)C(=O)NCC(=O)NCC(=O)NCC(=O)N[C@@H](Cc1ccccc1)C(=O)N[C@@H](CC(C)C)C(=O)N[C@@H](CC(N)=O)C(=O)N[C@@H](C)C(=O)N[C@@H](CCSC)C(=O)N[C@@H](CC(N)=O)C(=O)N[C@@H](C)C(N)=O  chronic toxic concentration (zebrafish embryos 28 hpf, E3 medium; 24 h): 25 µM
CC[C@H](C)[C@H](NC(=O)[C@H](CCCCN)NC(=O)CNC(=O)[C@H](CC(C)C)NC(=O)[C@H](Cc1ccccc1)NC(=O)[C@H](CCCCN)NC(=O)[C@H](CO)NC(=O)[C@H](Cc1ccccc1)NC(=O)[C@H](Cc1c[nH]c2ccccc12)NC(=O)[C@H](CCC(N)=O)NC(=O)[C@@H](NC(=O)[C@H](Cc1ccccc1)NC(=O)CCCCCNC(=O)CN1CCN(CC(=O)O)CCN(CC(=O)O)CCN(CC(=O)O)CC1)C(C)C)C(=O)N[C@@H](CCC(=O)O)C(=O)N1CCC[C@H]1C(=O)N[C@@H](CC(=O)O)C(=O)N[C@H](C(=O)N[C@@H](CO)C(=O)N[C@@H](CCC(N)=O)C(=O)N[C@H](C(=O)N[C@@H](CCC(N)=O)C(=O)N[C@@H](CC(=O)O)C(=O)N1CCC[C@H]1C(=O)N[C@@H](CC(N)=O)C(=O)N[C@@H](CC(=O)O)C(=O)N[C@@H](CCC(N)=O)C(=O)N[C@@H](Cc1ccc(O)cc1)C(=O)N[C@@H](CCC(=O)O)C(=O)N1CCC[C@H]1C(=O)N[C@@H](Cc1ccccc1)C(=O)O)C(C)C)C(C)C [copper-64 labelled]  SUVmean (dynamic PET; mouse both sexes, CT26 tumour, checkpoint inhibitor-treated, tumour; intravenous, 100 µCi/mouse, 870 s): 3.87 SUV
CCC1=C(C)C2=C(c3ccc(P(=NC4=[O+][Ru-]([Cl])[n+]5ccccc54)(c4ccccc4)c4ccccc4)cc3)c3c(C)c(CC)c(C)n3[B-](C)(C)[N+]2=C1C.Cc1ccc(C(C)C)cc1.[Cl-]  logP (LC-MS shake flask; 1-octanol/PBS): 2.2 ± 0.27
CC(C)[C@H](NC(=O)[C@@H](NC(=O)[C@H](CCCNC(=N)N)NC(=O)[C@H](CCCNC(=N)N)NC(=O)[C@H](CCCNC(=N)N)NC(=O)[C@H](CCC(N)=O)NC(=O)[C@H](CCCNC(=N)N)NC(=O)[C@H](CCCNC(=N)N)NC(=O)[C@H](CCCCN)NC(=O)[C@H](CCCCN)NC(=O)[C@H](CCCNC(=N)N)NC(=O)CN)[C@@H](C)O)C(=O)N[C@H](C(=O)N[C@@H](CO)C(=O)N1CCC[C@H]1C(=O)O)[C@@H](C)O  organ weight (ICR mice, female, spleen; intranasal, 20 mg/kg daily, 4 weeks): 0.089 ± 0.028 g
CCN(CC)CCOc1ccc(-c2nnn(Cc3ccc(OC)cc3)c2N)cc1  remaining compound (monkey hepatocytes; concentration not given, time not given): 54.6%
NC1CCN(C(=O)Oc2ccc(C3CCCC4(C3)OOC3(O4)C4CC5CC(C4)CC3C5)cc2)CC1 (racemic)  AUC(0-inf) (male ICR mice, plasma; oral, 50 mg/kg): 6920 ng·h/mL

A few entries again:
NC1CCN(C(=O)Oc2ccc(C3CCCC4(C3)OOC3(O4)C4CC5CC(C4)CC3C5)cc2)CC1 (racemic)  AUC(0-inf) (male ICR mice, plasma; oral, 50 mg/kg): 6920 ng·h/mL
